Experimental data pooled from the literature.
Numbered parts are unrelated; each lists some results of a single study.
Chain of UniProt Q96GD4 (whole entry, looked up): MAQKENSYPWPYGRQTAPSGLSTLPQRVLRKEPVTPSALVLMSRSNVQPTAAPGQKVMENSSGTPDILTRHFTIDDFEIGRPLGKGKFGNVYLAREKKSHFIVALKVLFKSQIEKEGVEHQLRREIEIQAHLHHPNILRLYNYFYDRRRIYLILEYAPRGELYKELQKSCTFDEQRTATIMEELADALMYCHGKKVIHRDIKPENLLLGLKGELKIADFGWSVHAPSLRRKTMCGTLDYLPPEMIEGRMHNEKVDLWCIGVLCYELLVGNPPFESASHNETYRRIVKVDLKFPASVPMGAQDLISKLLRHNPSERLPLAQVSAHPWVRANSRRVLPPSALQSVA
Chain of UniProt P49137 (whole entry, looked up): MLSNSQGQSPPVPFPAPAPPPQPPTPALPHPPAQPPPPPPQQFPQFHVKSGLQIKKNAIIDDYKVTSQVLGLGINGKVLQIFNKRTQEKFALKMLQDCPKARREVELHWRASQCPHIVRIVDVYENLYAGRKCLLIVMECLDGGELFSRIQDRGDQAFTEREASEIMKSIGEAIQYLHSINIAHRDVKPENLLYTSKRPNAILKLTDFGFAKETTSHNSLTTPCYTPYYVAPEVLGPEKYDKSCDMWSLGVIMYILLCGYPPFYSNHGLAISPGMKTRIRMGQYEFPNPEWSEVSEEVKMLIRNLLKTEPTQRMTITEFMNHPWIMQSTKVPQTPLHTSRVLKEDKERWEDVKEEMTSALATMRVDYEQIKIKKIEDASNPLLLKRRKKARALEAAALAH
Chain of UniProt P51957 (whole entry, looked up): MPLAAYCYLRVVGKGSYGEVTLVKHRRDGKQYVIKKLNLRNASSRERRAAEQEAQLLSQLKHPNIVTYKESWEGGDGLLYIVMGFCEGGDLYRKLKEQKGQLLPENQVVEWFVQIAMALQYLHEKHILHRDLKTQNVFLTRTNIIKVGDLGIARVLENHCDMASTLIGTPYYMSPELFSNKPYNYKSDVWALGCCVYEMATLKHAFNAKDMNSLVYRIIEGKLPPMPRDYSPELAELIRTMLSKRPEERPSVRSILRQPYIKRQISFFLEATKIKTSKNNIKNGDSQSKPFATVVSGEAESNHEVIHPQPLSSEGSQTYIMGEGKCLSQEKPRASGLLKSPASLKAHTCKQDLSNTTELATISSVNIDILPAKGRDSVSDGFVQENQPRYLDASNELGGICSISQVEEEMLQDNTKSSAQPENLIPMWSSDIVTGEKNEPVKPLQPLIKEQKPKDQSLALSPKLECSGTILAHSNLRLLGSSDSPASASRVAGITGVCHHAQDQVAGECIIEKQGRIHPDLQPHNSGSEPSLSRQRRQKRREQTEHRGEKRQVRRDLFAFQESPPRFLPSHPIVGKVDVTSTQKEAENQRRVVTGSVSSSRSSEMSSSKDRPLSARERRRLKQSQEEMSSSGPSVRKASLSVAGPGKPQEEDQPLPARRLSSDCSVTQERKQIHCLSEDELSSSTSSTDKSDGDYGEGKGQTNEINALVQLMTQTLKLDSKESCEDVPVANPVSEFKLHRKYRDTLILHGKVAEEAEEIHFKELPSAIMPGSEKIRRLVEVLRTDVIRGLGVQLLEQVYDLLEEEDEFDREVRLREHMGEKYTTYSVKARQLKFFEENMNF
Chain of UniProt O75116 (whole entry, looked up): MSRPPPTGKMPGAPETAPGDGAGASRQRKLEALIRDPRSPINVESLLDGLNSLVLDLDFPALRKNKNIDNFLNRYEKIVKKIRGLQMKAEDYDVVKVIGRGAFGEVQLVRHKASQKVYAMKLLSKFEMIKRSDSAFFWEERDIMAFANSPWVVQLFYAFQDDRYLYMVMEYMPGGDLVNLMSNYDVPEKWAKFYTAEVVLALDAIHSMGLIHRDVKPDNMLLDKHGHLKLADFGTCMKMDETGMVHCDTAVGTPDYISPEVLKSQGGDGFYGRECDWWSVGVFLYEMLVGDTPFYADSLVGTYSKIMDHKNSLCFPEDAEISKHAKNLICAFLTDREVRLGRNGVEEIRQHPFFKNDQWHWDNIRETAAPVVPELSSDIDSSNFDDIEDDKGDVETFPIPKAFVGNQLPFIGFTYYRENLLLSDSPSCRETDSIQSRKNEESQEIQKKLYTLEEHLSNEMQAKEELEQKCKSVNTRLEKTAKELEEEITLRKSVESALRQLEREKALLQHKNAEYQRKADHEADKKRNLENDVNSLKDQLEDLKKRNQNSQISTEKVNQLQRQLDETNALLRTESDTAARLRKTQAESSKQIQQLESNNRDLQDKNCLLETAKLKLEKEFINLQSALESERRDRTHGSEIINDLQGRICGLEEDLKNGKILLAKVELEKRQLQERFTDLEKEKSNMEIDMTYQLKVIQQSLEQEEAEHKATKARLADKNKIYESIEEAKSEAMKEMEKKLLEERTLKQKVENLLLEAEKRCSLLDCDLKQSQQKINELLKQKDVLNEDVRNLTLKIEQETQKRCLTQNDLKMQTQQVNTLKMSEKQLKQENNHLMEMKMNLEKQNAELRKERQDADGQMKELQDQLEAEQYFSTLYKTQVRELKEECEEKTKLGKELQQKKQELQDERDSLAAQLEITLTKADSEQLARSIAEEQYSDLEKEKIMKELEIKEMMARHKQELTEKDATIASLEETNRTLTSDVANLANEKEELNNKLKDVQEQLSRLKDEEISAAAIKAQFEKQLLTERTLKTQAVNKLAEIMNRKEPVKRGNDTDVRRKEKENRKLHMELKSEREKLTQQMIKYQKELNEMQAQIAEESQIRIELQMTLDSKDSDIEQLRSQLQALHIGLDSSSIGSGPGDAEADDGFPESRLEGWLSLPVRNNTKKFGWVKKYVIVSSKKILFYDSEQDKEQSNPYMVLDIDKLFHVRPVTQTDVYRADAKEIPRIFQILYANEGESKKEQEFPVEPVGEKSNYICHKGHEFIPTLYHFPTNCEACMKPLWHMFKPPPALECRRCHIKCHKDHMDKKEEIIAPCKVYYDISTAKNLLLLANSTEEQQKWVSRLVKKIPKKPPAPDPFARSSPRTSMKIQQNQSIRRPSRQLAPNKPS
Chain of UniProt P42680 (whole entry, looked up): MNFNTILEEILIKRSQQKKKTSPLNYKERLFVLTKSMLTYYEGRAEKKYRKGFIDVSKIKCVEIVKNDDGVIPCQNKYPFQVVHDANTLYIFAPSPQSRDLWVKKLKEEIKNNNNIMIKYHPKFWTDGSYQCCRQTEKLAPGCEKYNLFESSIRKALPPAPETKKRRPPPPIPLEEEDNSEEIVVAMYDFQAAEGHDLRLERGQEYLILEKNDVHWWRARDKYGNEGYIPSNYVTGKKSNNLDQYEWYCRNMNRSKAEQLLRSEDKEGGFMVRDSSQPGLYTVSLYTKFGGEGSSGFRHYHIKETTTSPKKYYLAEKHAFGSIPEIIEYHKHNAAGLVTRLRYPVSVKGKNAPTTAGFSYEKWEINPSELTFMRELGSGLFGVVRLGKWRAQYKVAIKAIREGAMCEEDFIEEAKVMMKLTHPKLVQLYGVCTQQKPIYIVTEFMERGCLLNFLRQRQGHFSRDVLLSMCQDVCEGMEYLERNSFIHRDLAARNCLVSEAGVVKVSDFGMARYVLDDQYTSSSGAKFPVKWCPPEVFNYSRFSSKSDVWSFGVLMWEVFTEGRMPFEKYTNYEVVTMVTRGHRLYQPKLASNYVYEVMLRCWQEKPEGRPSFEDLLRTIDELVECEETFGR
Chain of UniProt Q14012 (whole entry, looked up): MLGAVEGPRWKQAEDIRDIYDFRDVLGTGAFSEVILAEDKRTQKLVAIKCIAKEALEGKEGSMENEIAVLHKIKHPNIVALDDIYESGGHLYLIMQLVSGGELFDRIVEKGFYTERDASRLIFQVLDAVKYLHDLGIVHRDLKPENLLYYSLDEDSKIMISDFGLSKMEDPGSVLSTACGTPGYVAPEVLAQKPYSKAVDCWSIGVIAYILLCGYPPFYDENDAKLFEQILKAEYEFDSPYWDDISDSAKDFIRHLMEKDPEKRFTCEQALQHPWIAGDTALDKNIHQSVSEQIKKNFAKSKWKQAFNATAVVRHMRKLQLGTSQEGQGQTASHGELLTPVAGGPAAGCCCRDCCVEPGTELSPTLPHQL

Sample 1 — technique: RNA Bind-n-Seq; molecule type: RNA; sample: in vitro; concentration: 100 nM; reference: input RNA pool; reading: higher = stronger binding
Target: RING finger protein unkempt homolog, zinc fingers 1-6, SBP tag (UNK, Homo sapiens, UniProt Q9C0B0, residues 30-357)
Chain of UniProt Q9C0B0 (30-357, looked up): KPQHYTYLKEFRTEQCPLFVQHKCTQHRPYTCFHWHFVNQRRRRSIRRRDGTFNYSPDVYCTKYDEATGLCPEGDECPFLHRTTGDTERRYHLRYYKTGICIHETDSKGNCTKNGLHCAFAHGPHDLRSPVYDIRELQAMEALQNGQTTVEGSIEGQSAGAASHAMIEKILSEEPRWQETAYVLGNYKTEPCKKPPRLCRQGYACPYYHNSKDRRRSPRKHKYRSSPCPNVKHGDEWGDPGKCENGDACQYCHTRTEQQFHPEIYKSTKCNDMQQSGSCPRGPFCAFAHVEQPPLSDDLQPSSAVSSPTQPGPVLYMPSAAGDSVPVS
Setting: RNA with constant flanks, vertebrate orthologous sites, ends assumed
Constant ends, left off below: GGGAGUUCUACAGUCCGACGAUC … CAACAGAGGAUUGAGCAUCA
| Oligonucleotide | bound/input enrichment [ratio] |
| --- | --- |
| CUCUCAUUUUUAUGCACCUAAAAAUCACUAUGAAAUUUUGAAACAUUCACUAGUUUUGCUGAGAUCUGCUCUGGCAGGUGUCUGUCUGUUCGAUACAUCUUAGCCACGUCUUUACCUGAA | 0.649 |
| CAAGCUCAUUAAGAAAAGCAAUUUUAAAACUGUAUUUAUUUAUGUUUGUAAACUUGUACAUAGUAACAACCCUGCAAAUGUUCUGUUACUCGAUUUUACAUCUUUUAGGUUCUUUUAGGG | 0.788 |
| CCCUUUCUCCCCAGCUGAGGGAGUUCAGGGAGCCCAGGAAGACCCUCAACUGUUCCAAUCCAGUAUUUUUUUCUUUUUUAAAAUUACUGUAUUUAUUAUGACGAUGGUGACUCCCCAGUG | 0.433 |
| CUUGCUGCUUCUGACACGAUUUACCAUAUGCACAAUCGUAAUUCCUUUUCCGCACAAUCCUUACUAAUGCCCGACCUUCCUCUACCUUCAGUGUUAUUUAUCAAUGUCUGCUUCUUCAUA | 1.34 |
| GGACUAAUUUGAUUUUUUAACCCCUUAUUUUCCUGAUUUAACCCCCCUCUUUUUUCUUAAGCAUAUGUAGUAACGUUAGCAGAAAGUUAAUUUGGAAAACUGAUUCUUAAAAAGAAAACA | 0.323 |
| GUUAGGUCAUGACCCUUACAGAUUAGGUCAUGACCCUUAUAGGUUAGGACAGGACCCCUAUAGGUUAGGCCAUGAUCCCUAUAGGCUAGCUCCUGACCCCUAUAGAAUGUCACCCAGACC | 0.497 |
| AGCAACCCAAGGAUUCAGGACUGGUUUUACAAAUAUGCCAAGUCGGUAUGGAACUAACAAUAGAAUUGGACAACCAAGACCAUGAUGUACUGUAAUUUAAUUUAUUUUUAUGAGGAAUAU | 0.948 |
| AGCGACCCAGGGAUUCAGGACUGGUUUUACAAAUAUGCCGGGUAGAUACGGAAGCAACAACAGAAUUGGACAACCAAGACCGUGAUGUACUCUUACCUUAUUUUUACAAGGAAUAUGUAG | 0.37 |

Sample 2 — technique: competition with immobilised ligand; concentration: 1 µM
SMILES: CCOCCn1cc(C(=O)Nc2ccc(-n3nc(-c4cccnc4)cc3C(F)(F)F)cn2)ccc1=O
| target | test | remaining binding [%] |
| --- | --- | --- |
| ERBB4 (Homo sapiens, UniProt Q15303) | cell-free assay | 100 |
| PIK3C3 (Homo sapiens, UniProt Q8NEB9) | cell-free assay | 77 |
| TEC (Homo sapiens, UniProt P42680) | cell-free assay | 100 |
| EGFR (Homo sapiens, UniProt P00533, L858R/T790M) | cell-free assay | 96 |
| FLT3 (Homo sapiens, UniProt P36888, K663Q) | cell-free assay | 98 |
| NEK4 (Homo sapiens, UniProt P51957) | cell-free assay | 80 |
| CAMK1 (Homo sapiens, UniProt Q14012) | cell-free assay | 100 |
| ROCK2 (Homo sapiens, UniProt O75116) | cell-free assay | 88 |
| FLT3 (Homo sapiens, UniProt P36888, D835Y) | cell-free assay | 98 |
| Aurora kinase B (AURKB, Homo sapiens, UniProt Q96GD4) | cell-free assay | 100 |
| MAPKAPK2 (Homo sapiens, UniProt P49137) | cell-free assay | 100 |
| Myosin-IIIa (MYO3A, Homo sapiens, UniProt Q8NEV4) | binding | 100 |
| Tyrosine-protein kinase ABL1, phosphorylated (ABL1, Homo sapiens, UniProt P00519, Y253F) | cell-free assay | 73 |
| CDK2 (Homo sapiens, UniProt P24941) | cell-free assay | 100 |

Sample 3 — technique: RNA Bind-n-Seq; molecule type: RNA; sample: in vitro; concentration: 20 nM; setting: 6-mer, flanks averaged, single round; added: 150 mM KCl; reference: input library; reading: higher = stronger binding
Target: TAR DNA-binding protein 43, full length, His tag (TARDBP, Homo sapiens, UniProt Q13148, residues 1-414)
| Oligonucleotide | 6-mer enrichment (R) |
| --- | --- |
| CGUAUG | 0.954 |
| GCCCGU | 0.738 |
| UGGGCA | 2.15 |
| UACCGG | 0.953 |
| UAUUUU | 0.731 |
| UCAAUA | 0.605 |
| ACCCGC | 0.672 |
| GUAUUA | 0.65 |

Sample 4 — effect on: enzyme activity; action: inhibitor; concentration: 0.5 µM; reference: control
Target: RAC-gamma serine/threonine-protein kinase (AKT3, Homo sapiens, UniProt Q9Y243)
Chain of UniProt Q9Y243 (whole entry, looked up): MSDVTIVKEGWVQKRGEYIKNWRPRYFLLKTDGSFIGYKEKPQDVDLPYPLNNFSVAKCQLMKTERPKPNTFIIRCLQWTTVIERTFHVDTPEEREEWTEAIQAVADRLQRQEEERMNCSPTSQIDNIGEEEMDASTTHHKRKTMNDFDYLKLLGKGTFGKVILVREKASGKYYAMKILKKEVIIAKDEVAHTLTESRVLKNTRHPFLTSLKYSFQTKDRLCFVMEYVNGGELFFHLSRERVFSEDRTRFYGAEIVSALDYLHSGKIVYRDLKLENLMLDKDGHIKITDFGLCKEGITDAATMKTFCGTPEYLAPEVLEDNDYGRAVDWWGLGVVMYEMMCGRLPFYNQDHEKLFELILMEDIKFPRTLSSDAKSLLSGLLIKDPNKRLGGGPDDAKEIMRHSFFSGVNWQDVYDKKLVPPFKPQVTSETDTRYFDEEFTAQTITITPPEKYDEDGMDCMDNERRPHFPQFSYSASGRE
| Compound | remaining activity [%] |
| --- | --- |
| N#C/C(=C\c1ccc(O)c(O)c1)C(=O)NCc1ccccc1 | 90.8 |
| CN([C@@H](Cc1ccc(OS(=O)(=O)c2cccc3cnccc23)cc1)C(=O)N1CCN(c2ccccc2)CC1)S(=O)(=O)c1cccc2cnccc12 | 104 |
| O=C1c2ccccc2-c2n[nH]c3cccc1c23 | 97 |
| COc1cc2c(cc1OC)-c1[nH]nc(Nc3cccc(F)c3)c1C2 | 96.1 |
